{"data": "Published values collected from several papers", "note": "A part holds a random share of what one study measured. Changes are numbered by the printed parent chain."}
{"data": "Sample 1", "target": "CCNB3, cyclin fold, Cln2 fusion (human)", "method": "yeast growth competition, sequencing", "sample": "yeast", "setting": "strong parent motif", "baseline": "not given", "reading": "higher = stronger binding", "starting sequence": "RBL2 docking peptide (human); STTRRRLFVENDS"}
{"Substitution": "L7H", "normalised enrichment score": 0.0131}
{"Substitution": "L7N", "normalised enrichment score": -0.191}
{"Substitution": "N11V", "normalised enrichment score": 0.754}
{"Substitution": "L7Y", "normalised enrichment score": -0.368}
{"Substitution": "T3P", "normalised enrichment score": 1.81}
{"Substitution": "S1V", "normalised enrichment score": 1.03}
{"Substitution": "F8Y", "normalised enrichment score": 0.279}
{"Substitution": "R6W", "normalised enrichment score": 0.176}
{"Substitution": "R4M", "normalised enrichment score": -0.355}
{"Substitution": "R6F", "normalised enrichment score": 0.854}
{"Substitution": "S13W", "normalised enrichment score": 0.788}
{"Substitution": "S1L", "normalised enrichment score": 1.27}
{"Substitution": "R4P", "normalised enrichment score": 0.631}
{"Substitution": "N11P", "normalised enrichment score": 1.01}
{"data": "Sample 2", "Molecule": "PhoQ, residues 284 288 289 292 302 303 GASLAW", "method": "Sort-seq", "refers to": "YFP reporter", "sample": "E. coli", "setting": "PhoQ-PhoP variant library", "together with": "10 µM Mg2+", "baseline": "high Mg2+ state", "reading": "higher = stronger signaling"}
{"target": "PhoP, residues 12 14 15 18 19 SFCSL (Escherichia coli, UniProt P23836)", "fold induction": 11.6}
{"target": "PhoP, residues 12 14 15 18 19 AYFRS (Escherichia coli, UniProt P23836)", "fold induction": 2.53}
{"target": "PhoP, residues 12 14 15 18 19 HHYTI (Escherichia coli, UniProt P23836)", "fold induction": 0.698}
{"data": "Sample 3", "target": "Centromere-binding protein 1, full length, His-tagged (CBF1, Saccharomyces cerevisiae, UniProt P17106, residues 1-351)", "method": "competition protein-binding microarray", "form": "double-stranded DNA, one strand shown", "sample": "in vitro", "concentration": "2 µM", "setting": "whole 60-bp probe, lowest competitor level", "together with": "Pho4 competitor, 0.05 µM", "reading": "higher = stronger binding", "constant ends, left off below": "… GTCTTGATTCGCTTGACGCTGCTG", "UniProt P17106, sequence (whole entry, looked up)": "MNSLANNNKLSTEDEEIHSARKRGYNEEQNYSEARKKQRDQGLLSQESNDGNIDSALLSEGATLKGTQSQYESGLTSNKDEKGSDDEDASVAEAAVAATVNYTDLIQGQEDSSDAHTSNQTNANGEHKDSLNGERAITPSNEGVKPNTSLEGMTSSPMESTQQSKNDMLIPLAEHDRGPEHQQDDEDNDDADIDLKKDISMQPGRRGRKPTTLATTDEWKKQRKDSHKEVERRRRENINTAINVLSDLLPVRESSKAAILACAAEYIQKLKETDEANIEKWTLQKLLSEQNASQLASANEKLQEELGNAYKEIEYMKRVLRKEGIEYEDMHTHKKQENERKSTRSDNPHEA"}
{"Oligonucleotide": "AAAACATCAAAACTACACGTTTGGGTGGTACGGAGG", "fluorescence intensity [a.u.]": 76.9}
{"Oligonucleotide": "AGGAAGCTGATAAGCAACGTGGTGATGAACAGTATG", "fluorescence intensity [a.u.]": 92.2}
{"Oligonucleotide": "GAGCTCAAGGCGAGTCACGATGCAGAACTGGAACTT", "fluorescence intensity [a.u.]": 150}
{"Oligonucleotide": "TCTCGAAACAATTGCAATGTGACGGTCTTGTTAGGC", "fluorescence intensity [a.u.]": 80.4}
{"Oligonucleotide": "CTGCCATTGCTGAAGCTCGTGCTTTCGAAGAAAACT", "fluorescence intensity [a.u.]": 112}
{"Oligonucleotide": "TTCCAGAAATTGGTGTTTGTGATGCTTGATGCTCTC", "fluorescence intensity [a.u.]": 64.5}
{"Oligonucleotide": "AAATTACTAAGTTGGGGTGTGGGTGACGCCGTATGA", "fluorescence intensity [a.u.]": 67.2}
{"Oligonucleotide": "ATGTTCCTGAGGTTCCACGTGCAAAGCTAGAAGAAA", "fluorescence intensity [a.u.]": 981}
{"Oligonucleotide": "AGAGAGGCTTTGAAACATGTGATTGCTGTTCGCGAT", "fluorescence intensity [a.u.]": 580}
{"Oligonucleotide": "TTGCTGTCCAGCAAAAACGTGATGGCCACTTCGGAC", "fluorescence intensity [a.u.]": 376}
{"Oligonucleotide": "ACAGCATTCGACGGAGTCGTGGGTACTTACGAACGG", "fluorescence intensity [a.u.]": 51.9}
{"Oligonucleotide": "AAATTACTAAGTTGTCACTGGACTTACCCCGTATGA", "fluorescence intensity [a.u.]": 102}
{"Oligonucleotide": "CATCATCATCATCATCCATATCAGTAATAGGTTTTC", "fluorescence intensity [a.u.]": 89.8}
{"Oligonucleotide": "TGCGCAACAACTTGCCTCGTGGGTGTATGTCTAGAA", "fluorescence intensity [a.u.]": 66.7}
{"Oligonucleotide": "AAATTACTAAGTTGCTCAGTGGGTGACGCCGTATGA", "fluorescence intensity [a.u.]": 62.6}
{"data": "Sample 4", "target": "RING finger protein unkempt homolog, zinc fingers 1-6, GST-SBP tag (UNK, Homo sapiens, UniProt Q9C0B0, residues 30-357)", "method": "RNA Bind-n-Seq", "form": "RNA", "sample": "in vitro", "concentration": "not given", "setting": "RNA with constant flanks, human-mouse chimeric sites, ends assumed", "baseline": "input RNA pool", "reading": "higher = stronger binding", "constant ends, left off below": "GGGAGUUCUACAGUCCGACGAUC … CAACAGAGGAUUGAGCAUCA", "UniProt Q9C0B0, sequence (30-357, looked up)": "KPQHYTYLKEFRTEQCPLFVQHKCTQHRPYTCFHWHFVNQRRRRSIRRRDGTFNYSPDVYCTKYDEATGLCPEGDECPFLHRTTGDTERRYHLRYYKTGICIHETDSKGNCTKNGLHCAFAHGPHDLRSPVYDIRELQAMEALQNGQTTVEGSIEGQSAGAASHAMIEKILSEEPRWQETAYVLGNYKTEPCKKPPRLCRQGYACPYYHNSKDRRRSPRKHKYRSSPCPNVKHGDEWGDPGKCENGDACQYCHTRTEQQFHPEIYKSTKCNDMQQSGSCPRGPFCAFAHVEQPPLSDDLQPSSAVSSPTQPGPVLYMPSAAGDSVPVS"}
{"Oligonucleotide": "UUAAUCCCCUUCGUUGCUCCCCCACUUCUCAUGGUAAUGACAAAAACUUAUAUCCCCGUCCUAGCUUUCACUCAGAUGGCUUAUGGAGCCGGUUUCCUAGCUUUCUUGGGAGGGAUCAGA", "bound/input enrichment [ratio]": 0.369}
{"Oligonucleotide": "AUCAAAUACUUUGGGGACAUCAUUAGUGUGGGACAGAGACUGUUGCAAGGAGCUCGGAUUUUAGGAAUUCCAGUUAUCAUAACGGAACAAUACCCCAAAGGACUUGGCAGCACCGUUCAA", "bound/input enrichment [ratio]": 0.407}
{"Oligonucleotide": "CCCCAAUACCAUUUGCAAGAGUUGGAAUGCACUCUCUUUAAAGUUUUACAUGUAUACAUUUUAGGGCUGUAGAUUUAUUUUCCUGGUUUUGUUUUUCAUUGCUGACUUUUGAGCACAGAA", "bound/input enrichment [ratio]": 1.36}
{"Oligonucleotide": "UACUGCUGCUUUCAACUUAAAUCACUGAGGCAUCUCUACUGUUCUGUGAGCAUCAGGACUGUAGCGCUGUGUCACCACAUGAGAGUUGUUAAGCAGCCUUUCUGUGGAGGGUGGGAAUGA", "bound/input enrichment [ratio]": 0.107}
{"Oligonucleotide": "ACAGUUAUACACUGUUGUUUCAUUUUCUUGUAUGUUUGUAGUGUCUGCUUGCCUGUGACUUCUGGUAAAAUAAAAUAAGCCUUUGAAAAUAUUUUAGCAUGGUAUUUAACAUUUUCUAAA", "bound/input enrichment [ratio]": 2.1}
{"Oligonucleotide": "AGCACAACCCCAGCAAAGCUAAGAAAUCCUUGUACAAGUGAACAAAACUGCACCAGCCCAUUUAGCUACAAAAAUGUGCUUAGUCUUACUAAUAAAGGAGAAGUAUUCAAUGAACUUGUU", "bound/input enrichment [ratio]": 0.583}
{"Oligonucleotide": "CGCUUGGAUGAGGCGGGUGUCACAGAUGAAGUGCUAGAUUCUGCCAUGCAAGCCUUCUUACUAGAAAUCAUUGUUAAACAUGGGGAGCCGGCACCUUAUUUAUGUAACAAAGAUCCGUUU", "bound/input enrichment [ratio]": 0.283}
{"Oligonucleotide": "AGAAUCUUGGGACUGUUUUACUUAAUUGGUCAUUGAUAUCUCAACAAACAUGGAGAUAAGAUUAGAAAUCUUGACAUCAACAGGUAUCAAGCAGAAAAAACCAUGGCCACGUGUCUCCUG", "bound/input enrichment [ratio]": 0.132}
{"Oligonucleotide": "CUGGGUAUCAUCUCUCGUGCUGUUAGACACCUGUUCAAGAGUAUUGAUGAGAAAAAGACCUCAGCGAUUAAAAACGGGCUUCCUGCUCCUGAAUUCAAAGUGAAUGCCCAGUUCCUAGAG", "bound/input enrichment [ratio]": 0.159}
{"Oligonucleotide": "GAUAAGAAAAACUUGUUGGAGACCCGAUUGCAUGUCACUGGUAGAGACCUGAGGUGUCAAAUAGCUGAAACUUUCGGAUUUCAAGAAAAUUACAUCAAGAUCGUAAUAAAUAAGAAACAG", "bound/input enrichment [ratio]": 0.229}
{"Oligonucleotide": "GAUCAUGAACCACCAUCAGAAAUGAAGAUGAGAUUACCCAGACGAGCCAAAACAGCUGCGCUACAGAAAAGUAAACUUAACCUUGCAGAGUUCCUUAAAUGAAGAUCAAGUUAAGAGAGC", "bound/input enrichment [ratio]": 0.253}
{"note": "Excerpt of the above (sample 1):"}
{"Substitution": "S13W", "normalised enrichment score": 0.788}
{"Substitution": "R6F", "normalised enrichment score": 0.854}
{"Substitution": "S1L", "normalised enrichment score": 1.27}
{"Substitution": "T3P", "normalised enrichment score": 1.81}
{"Substitution": "L7Y", "normalised enrichment score": -0.368}
{"Substitution": "N11V", "normalised enrichment score": 0.754}
